Published values gathered from unrelated publications.
± marks the error that the study gave.

Cc1ccc(Sc2ccccc2N2CCNCC2)c(C)c1 — participants with TEAE (measured: AST increased; healthy adult women; oral, 5 mg daily, 12 days): 0%
O=C(Nc1nc2cccc(-c3ccc(CN4CCS(=O)(=O)CC4)cc3)n2n1)C1CC1 — treatment-emergent adverse events (measured: food allergy; human rheumatoid arthritis patients; oral, 200 mg once daily, 4 weeks, regardless of relatedness): 0%
CCOC(=O)[C@H](CCc1ccccc1)N[C@@H](C)C(=O)N1[C@H](C(=O)O)C[C@H]2CCCC[C@@H]21 — autosampler stability (processed human plasma; 1000 pg/mL, 48 h, 4 °C; baseline: nominal): 103 ± 7.8%
N#Cc1ccc2c(c1)[C@H]1CCCN(C(=O)c3ccc4[nH]cnc4c3)[C@H]1C2 — maximum ACTH level (human; 80 mg, day 7): 13 pmol/L
NC(=O)N1c2ccccc2C=Cc2ccccc21 — adverse events incidence (measured: back pain; human male; oral, dose not given, CTCAE on-treatment AEs): 7%
COc1cc2nccc(Oc3ccc(NC(=O)c4cc5c(n(-c6ccccc6)c4=O)CCCC5=O)nc3)c2cc1OC — grade ≥3 Anaemia patients (relapsed or refractory AML; oral, all dose levels): 35%
COc1ccc2c(=O)n(C)c(-c3ccccc3)nc2c1 — tissue concentration (male Sprague-Dawley rat, large intestine; oral, 30 mg/kg, 0.25 h): 165 ng/g
CNC(=O)c1ccc(-c2cnc3ncc(Cc4ccc5ncccc5c4)n3n2)cc1F — abdominal distension incidence (cancer patients; oral, 600 mg twice daily, all grades RP2D expansion): 5%
O=C(Cc1ccc2ccccc2c1)Nc1cc(C2CCC2)[nH]n1 — accuracy (mouse plasma; 375 ng/mL, 8 h, ambient temperature, bench-top stability): 94.5%
Cc1cc(NC2CCN(C(=O)OC3CCN(C(=O)/C=C/CN(C)C)C3)CC2)n2ncc(C(C)C)c2n1 (centres unmarked) — patients with TEAE (CTCAE v4.0, measured: Dyspnea; patients with advanced solid tumours; oral, dose not given, TIW, grade 3 or higher): 0%
COc1nnc2ccc(N3CCC(c4ccc(OCCN5CCN(C)C(=O)[C@H]5C)cc4)CC3)nn12 — AUC(0-t) (patients, plasma; oral, 20 mg twice daily, multiple dose, monotherapy): 0.279 µM·h
Cc1coc([C@H]2C[C@H]3[C@@H](CF)SC(N)=N[C@@]3(c3ccc(F)cc3F)CO2)n1 — brain concentration (male 129/SVE mouse, brain; subcutaneous, 80 mg/kg, 3 h): 2800 nM
Cn1cc(-c2ccc(S(=O)(=O)[C@@H]3C[C@@H](C(=O)NC4(C#N)CC4)N(C(=O)C4(C(F)(F)F)CC4)C3)c(C(F)(F)F)c2)cn1 — t_half (noncompartmental analysis; human, plasma; oral, 100 mg, day 1, with food, geometric mean): 539 min
CC(=O)O[C@H]1C(=O)[C@@]2(C)[C@H]([C@H](OC(=O)c3ccccc3)[C@]3(O)C[C@H](OC(=O)[C@H](O)[C@@H](NC(=O)c4ccccc4)c4ccccc4)C(C)=C1C3(C)C)[C@]1(OC(C)=O)CO[C@@H]1C[C@@H]2O — adverse event incidence (measured: Anaemia; patients with advanced solid tumours; intravenous, dose not given, grade 3 and 4, possibly related to drug): 26%
Cc1nc(-c2ccc(OCC(C)C)c(C#N)c2)sc1C(=O)O — geometric mean ratio AUC(0-24) (human, plasma; oral, 20 mg, with: verinurad 10 mg; baseline: test over reference): 94.5
COc1cccc(OC)c1-c1cc(C(=O)NC2(C(=O)O)C3CC4CC(C3)CC2C4)nn1-c1ccc(C(=O)N(C)CCCN(C)CCCN(C)C(=O)CN2CCN(CC(=O)[O-])CCN(CC(=O)[O-])CCN(CC(=O)[O-])CC2)cc1C(C)C.[177Lu+3] (centres unmarked) — tumour-to-pancreas ratio (mouse HT-29 xenograft; 24 h, biodistribution; baseline: tumour over pancreas): 142
Cc1ccc([C@@H]2O[C@H](CO)[C@@H](O)[C@H](O)[C@H]2O)cc1Cc1ccc(-c2ccc(F)cc2)s1 — urinary calcium excretion change (Japanese type 2 diabetes patients; 200 mg, day 6, 24 h urine collection; baseline: baseline): -40 mg
Cc1c(-c2ccc(N3CCc4cccc(C(=O)Nc5nc6ccccc6s5)c4C3)nc2C(=O)O)cnn1CC12CC3(C)CC(C)(C1)CC(OCCNCC[C@H](O)CO)(C3)C2 — systemic vascular resistance change (anaesthetised male beagle dogs; intravenous infusion, 0.3 mg/kg/min, 60 min; baseline: vehicle): -11%
[18F]c1ccc(-c2ccc3c(c2)[nH]c2ccncc23)cn1 — SUV (ex vivo biodistribution; APP/PS1 mouse, AD model, eyes; intravenous, 30 min): 2.74 ± 0.652
CCOc1c([C@H](C)n2nc(C)c3c(N)ncnc32)cc(Cl)c(F)c1[C@@H]1CNC(=O)C1 — patients (measured: QRS >100 to ≤110 ms; previously treated B-cell malignancy; oral, 30 mg once daily, baseline below thresholds): 10.5%
COc1ccc2c(c1)CN(C(=O)CCN1CCC(Cc3ccccc3)CC1)CC[S@@+]2[O-] — diastolic blood pressure (telemetry; conscious dog; intravenous, 4 mg/kg, 0.5 h): 82 ± 14 mmHg
CNCCOC12CC3(C)CC(C)(CC(Cn4ncc(-c5ccc(N6CCc7cccc(C(=O)Nc8nc9ccccc9s8)c7C6)nc5C(=O)O)c4C)(C3)C1)C2 — plasma concentration (anaesthetised male beagle dogs; intravenous bolus, 0.03 mg/kg, 210 min): 0 ng/mL
Cc1ccc(C(=O)N(CCCN)C(c2nc3snc(C)c3c(=O)n2Cc2ccccc2)C(C)C)cc1 (centres unmarked) — patients with CTCAE grade ≥3 events (human patients; intravenous, 10 mg/day): 67%
CN1CC(=O)N2[C@H](c3ccc4c(c3)OCO4)c3[nH]c4ccccc4c3C[C@@H]2C1=O — accuracy (human plasma; 400 ng/mL, 74 days, long-term storage -20 °C): 99.2%
CCc1cc(C(=O)NC)c2nccc(N3CCc4c(cc(Cn5ccnc5)cc4-c4cn(C)nc4C(F)(F)F)C3=O)c2c1 — body weight (Sprague Dawley rat; oral, 50 mg/kg once daily, day 2, 7-day toxicology study): 226 ± 8.2 g
OCC1=C[C@@H](O)[C@@H]2C=CO[C@@H](O[C@@H]3O[C@H](CO)[C@@H](O)[C@H](O)[C@H]3O)[C@H]12 — accuracy (post-procedure stability; rat plasma; 200 ng/mL, 3 h, room temperature): 107%
CCn1cc(C(=O)N2CCOCC2)c(=O)c2cc(NC3Cc4ccccc4C3)cnc21 — half-life (human, fasted, plasma; oral, 600 mg single dose, tablet, arithmetic mean): 3.83 h
CCN1/C(=C/C(C)=O)Sc2ccc(F)cc21 — PR interval (cynomolgus monkey; oral, 30 mg/kg, 6 h post-dose): 88 ± 3 ms
COc1cc([C@H]2OC[C@H]3[C@@H]2CO[C@@H]3c2ccc(O[C@@H]3O[C@H](CO)[C@@H](O)[C@H](O)[C@H]3O)c(OC)c2)ccc1O[C@@H]1O[C@H](CO)[C@@H](O)[C@H](O)[C@H]1O — accuracy (post-procedure stability; rat plasma; 8 ng/mL, 1 h, room temperature): 88.9%
Cc1cc(-c2nccc3c2ccn3CC(=O)Nc2ccc(-c3cnccn3)cn2)ccn1 — device site dermatitis incidence (healthy human volunteers; oral, 20 mg single dose, single ascending dose): 16.7%
O=C(N[C@H](Cc1c[nH]c2ccccc12)C(=O)Nc1ccncc1)c1ccc(-c2ccc(F)c(C(F)(F)F)c2)cc1F — concentration (Swiss Webster mouse, female, muscle; oral, 50 mg/kg, 2 h, 20% HPβCD vehicle): 630 nM
CC(C)c1nc(N(C)S(C)(=O)=O)nc(-c2ccc(F)cc2)c1/C=C/[C@@H](O)C[C@@H](O)CC(=O)O — subjects with adverse event (measured: vessel puncture site pain; healthy men; oral, dose not given, 8 days, treatment-emergent, crossover trial): 4.5%

For quick reference, copied from above:
CNC(=O)c1ccc(-c2cnc3ncc(Cc4ccc5ncccc5c4)n3n2)cc1F — abdominal distension incidence (cancer patients; oral, 600 mg twice daily, all grades RP2D expansion): 5%
O=C(Cc1ccc2ccccc2c1)Nc1cc(C2CCC2)[nH]n1 — accuracy (mouse plasma; 375 ng/mL, 8 h, ambient temperature, bench-top stability): 94.5%
Cc1cc(NC2CCN(C(=O)OC3CCN(C(=O)/C=C/CN(C)C)C3)CC2)n2ncc(C(C)C)c2n1 (centres unmarked) — patients with TEAE (CTCAE v4.0, measured: Dyspnea; patients with advanced solid tumours; oral, dose not given, TIW, grade 3 or higher): 0%
